Published values from different studies.
Every numbered part comes from another study and shows a few of its results, in no order.

Sample 1
Target: Fragile X messenger ribonucleoprotein 1, C-terminal low-complexity region (Fmr1, Mus musculus, UniProt P35922)
Technique: RNA Bind-n-Seq
Molecule type: RNA
Medium: in vitro
Tested at: 200 nM
Setting: whole 134-nt RNA, ends assumed
Added: 150 mM LiCl
Baseline: input library
Direction: higher = stronger binding
Endpoint: log2 enrichment
Library: 7-deaza-guanosine replaces G
Sequence = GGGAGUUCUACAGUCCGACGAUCAGUCCUGUGCUACACAUCGUAUGUACCGAAUCGGGGAGGGGUUUGGGGUUUUUGGGGAAAGUAUUAUGUUACGCCGUUCGGAUCUGCACUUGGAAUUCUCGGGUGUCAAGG; value = -0.753
Sequence = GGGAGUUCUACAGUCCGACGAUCCCUCAAGUCCUGUGCUACACAUCGUAUGUACCGAAUCGGGCGGGCGGCGGGGAAAGUAUUAUGUUACGCCGUUCGGAUCUGCACUUCCAGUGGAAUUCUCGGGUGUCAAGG; value = 0.453
Sequence = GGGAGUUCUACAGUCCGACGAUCUGGCCCUGGUGGCAUGCGGGGAGGAAGAGGUGGCCUCAUGGAUCGUGGUGGUCCCGGUGGAAUGUUCAGAGUUGGCCGUGGUGGAGACAGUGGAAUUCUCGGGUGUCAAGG; value = -0.842
Sequence = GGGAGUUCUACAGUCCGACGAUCCAAGUCCUGUGCUACACAUCGUAUGUACCGAAUCGGAAAAAAAGGAAAAAGGAGGAAAGUAUUAUGUUACGCCGUUCGGAUCUGCACUUCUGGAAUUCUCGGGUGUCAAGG; value = -0.798
Sequence = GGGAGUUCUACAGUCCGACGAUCCUCAAGUCCUGUGCUACACAUCGUAUGUACCGAAUCGGGGCGGGGCGGCGGGGAAAGUAUUAUGUUACGCCGUUCGGAUCUGCACUUCCAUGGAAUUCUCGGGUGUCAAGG; value = -0.699
Sequence = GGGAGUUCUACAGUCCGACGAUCGCAGGAAGUAAAAACAAAUGGAAAUGCUUCGGAUAGUGGCAGGGGUGGGGGUUGCUAAGGAAAGGGUGGGAUGGGAGUGGGUAAGGAGUUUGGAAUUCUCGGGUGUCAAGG; value = 1.26
Sequence = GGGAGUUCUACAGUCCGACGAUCACCAUGCAGGUGGGCAUCUUUGGGAAGUGGGGCAAGGGGGGGAUAGGGAGGGGGGGAACACUUUGGGAACAGGUGGUCCCAGGUCGUUUCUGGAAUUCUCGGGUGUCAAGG; value = 1.16
Sequence = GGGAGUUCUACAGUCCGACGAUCUCCUGUGCUACACAUCGUAUGUACCGAAUCGGGGAAAGGGGUUUUUGGGGAAAAAGGGGAAAGUAUUAUGUUACGCCGUUCGGAUCUGCAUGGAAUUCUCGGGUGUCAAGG; value = -0.804
Sequence = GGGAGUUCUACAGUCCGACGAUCUCACCUGUUUACAGUGAAUCAGACGUCCCAAUAGAUGUGGAGACGGUCACAUCAACGCCUAUGCCACUCUAUGACAAUCAGAAGGCACGCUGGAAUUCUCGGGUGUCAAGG; value = -2.01
Sequence = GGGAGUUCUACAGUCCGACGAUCAAGUCCUGUGCUACACAUCGUAUGUACCGAAUCGGGAAAAAGGGAAAAAGGGAGGGAAAGUAUUAUGUUACGCCGUUCGGAUCUGCACUUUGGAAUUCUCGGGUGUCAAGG; value = 0.0263
Sequence = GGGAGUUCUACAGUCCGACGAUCUCAAGUCCUGUGCUACACAUCGUAUGUACCGAAUCGGCCCGGGGCCCGGGCCCGGAAAGUAUUAUGUUACGCCGUUCGGAUCUGCACUUCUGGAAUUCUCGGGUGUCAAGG; value = -1.9

Sample 2
Target: Interferon regulatory factor 7, full length, phosphomimetic (IRF7, Homo sapiens, UniProt Q92985, residues 1-503, S471D/S472D/S475D/S476D/S477D/S483D/S484D/S487D)
UniProt Q92985, sequence (whole entry, unmodified, looked up): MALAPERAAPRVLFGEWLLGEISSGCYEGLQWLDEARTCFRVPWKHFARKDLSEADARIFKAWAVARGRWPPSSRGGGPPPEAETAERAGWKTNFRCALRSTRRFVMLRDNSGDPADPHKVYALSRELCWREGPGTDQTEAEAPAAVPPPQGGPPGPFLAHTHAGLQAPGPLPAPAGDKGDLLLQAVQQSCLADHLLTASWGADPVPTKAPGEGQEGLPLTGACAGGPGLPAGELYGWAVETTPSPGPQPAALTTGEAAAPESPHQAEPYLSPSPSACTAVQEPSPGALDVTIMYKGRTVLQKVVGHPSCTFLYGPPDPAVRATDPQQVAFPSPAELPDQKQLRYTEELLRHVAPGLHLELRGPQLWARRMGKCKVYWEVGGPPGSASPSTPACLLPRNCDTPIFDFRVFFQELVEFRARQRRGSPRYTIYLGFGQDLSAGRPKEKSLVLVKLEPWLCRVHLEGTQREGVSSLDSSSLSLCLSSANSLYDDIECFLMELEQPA
Technique: protein-binding microarray
Molecule type: double-stranded DNA, one strand shown
Medium: in vitro
Tested at: 2200 nM top
Setting: 60-bp whole probe
Added: salmon DNA 0.4 mg/ml
Baseline: random background probes
Direction: higher = stronger binding
Endpoint: fitted relative affinity
Constant ends, left off below: GCCTAGCAC … GTCTTGATTCGCTTGACGCTGCTG
Sequence = TCACTTTTTTTTCTTTAACTGTGCTAG; value = 2.67 z-score
Sequence = GGCGATATCGGGACTGGAGACGTGCTA; value = -0.838 z-score
Sequence = GATGGTATCGACACTGGGGACGTGCTA; value = -0.199 z-score
Sequence = GACGGACTCGGTTTCGGGACGTGCTAG; value = 4.21 z-score
Sequence = TGAGATTTCAGTCTCGATTAGTGCTAG; value = 0.266 z-score
Sequence = TTAGATTTCAGTCTCAATTAGTGCTAG; value = 0.443 z-score
Sequence = GAAGGTTTCCTACTGCTGACGTGCTAG; value = 1.11 z-score
Sequence = GCTCCTTTTAATTTTTAACGGTGCTAG; value = 1.56 z-score
Sequence = GACGGTTACGGTTCCGGGACGTGCTAG; value = 0.885 z-score
Sequence = TTAGATCTCAGTCTGGATTAGTGCTAG; value = 0.317 z-score
Sequence = TTAGGTTTCCTAATCCTTTAGTGCTAG; value = 1.32 z-score
Sequence = CGTTTTTCATTTTTTTTTTCGTGCTAG; value = 4.75 z-score
Sequence = TTAGGAATCCTTATCCTTTAGTGCTAG; value = 0.234 z-score
Sequence = TTGAGGTTTTCTCTGGTTCTGTGCTAG; value = 0.718 z-score
Sequence = GACGAACTGGGGACTGGAGGCGTGCTA; value = -0.414 z-score
Sequence = GACGATATCAGTATCGAGGCGTGCTAG; value = 0.38 z-score
Sequence = TTGGATATCGGGACTGGATTAGTGCTA; value = -0.0762 z-score
Sequence = TCAAATATCTTTGTTGAACTGTGCTAG; value = -0.126 z-score
Sequence = CTGCATCTGATTTCTCAAACAGTGCTA; value = 0.69 z-score
Sequence = TCAATATTCTGCTTTGCACTGTGCTAG; value = 1.15 z-score
Sequence = CATATATTCACTATAGTGTGGTGCTAG; value = 1.06 z-score
Sequence = TAGAACTTCTCCACTGAATGAGTGCTA; value = -0.0154 z-score
Sequence = GACGGTCTCCAACTGCTGACGTGCTAG; value = 0.315 z-score
Sequence = TCATGTTTGTCACTCTCAGAGTGCTAG; value = 1.67 z-score
Sequence = GACGATATCGGGTTTCGAGAAGTGCTA; value = 0.691 z-score

Sample 3
Target: Histone acetyltransferase KAT6A, winged helix 1, GST fusion (KAT6A, Homo sapiens, UniProt Q92794, residues 1-85)
Technique: protein binding microarray
Molecule type: double-stranded DNA, one strand shown
Medium: in vitro
Tested at: not given
Setting: 8-mer, flanks averaged, mean of 2 arrays, mostly near background
Baseline: not given
Direction: higher = stronger binding
Endpoint: E-score
Target sequence (chain): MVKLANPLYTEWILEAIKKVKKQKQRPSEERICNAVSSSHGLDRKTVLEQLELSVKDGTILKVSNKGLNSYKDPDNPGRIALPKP
Sequence = GCCCGGGC; value = 0.427
Sequence = CGCGGGTA; value = 0.384
Sequence = ATCGGAAT; value = -0.0283
Sequence = AGTTCCAC; value = -0.138
Sequence = ATCAGCAT; value = -0.249
Sequence = CTAATATA; value = -0.0293
Sequence = TCGTCCCA; value = -0.179
Sequence = CCTCCTTA; value = -0.209
Sequence = AGCACGTG; value = -0.0864
Sequence = ACTGCCAA; value = -0.121
Sequence = TGATTAAA; value = -0.0631
Sequence = ACTCTCGA; value = -0.262
Sequence = ACGGGGTC; value = 0.345
Sequence = ACTTCAGA; value = -0.12
Sequence = CTCCCGTC; value = 0.265
Sequence = AGGCGAGC; value = -0.099
Sequence = CCGAGCAA; value = 0.00213
Sequence = GAATGAAC; value = -0.0961
Sequence = AAGTTGAG; value = -0.113

Mixed results
Substance = PhoQ, residues 284 288 289 292 302 303 TLMATV; target = PhoP, residues 12 14 15 18 19 HEGLL (Escherichia coli, UniProt P23836); assay = Sort-seq, item: YFP reporter; test system = E. coli; setting = PhoQ-PhoP variant library, added: 10 µM Mg2+; how to read = baseline: high Mg2+ state, higher = stronger signaling; endpoint = fold induction; value = 5.02
